Experimental data pooled from the literature.
Compare with care: the assays were run in different laboratories. ± marks the error that the study gave.
UniProt P10635, sequence (whole entry, looked up): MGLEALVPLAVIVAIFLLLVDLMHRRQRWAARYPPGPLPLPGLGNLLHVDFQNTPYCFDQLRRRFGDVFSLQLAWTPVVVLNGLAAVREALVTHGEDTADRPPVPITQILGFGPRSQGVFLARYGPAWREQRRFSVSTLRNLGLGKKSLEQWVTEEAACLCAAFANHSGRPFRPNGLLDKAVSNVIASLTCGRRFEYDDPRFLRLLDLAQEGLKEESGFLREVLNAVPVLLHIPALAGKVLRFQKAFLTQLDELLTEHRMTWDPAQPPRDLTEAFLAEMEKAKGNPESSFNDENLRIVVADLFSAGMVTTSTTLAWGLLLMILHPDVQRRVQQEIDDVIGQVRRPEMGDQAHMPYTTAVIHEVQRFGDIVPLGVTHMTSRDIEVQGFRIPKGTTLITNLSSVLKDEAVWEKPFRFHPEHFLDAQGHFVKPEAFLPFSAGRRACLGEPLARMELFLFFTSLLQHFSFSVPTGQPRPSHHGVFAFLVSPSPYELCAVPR

SMILES	tested on	test	system	conditions	how to read	measurement	value
COc1cccc(OC)c1-c1cc(C(=O)NC2(C(=O)O)C3CC4CC(C3)CC2C4)nn1-c1ccc(C(=O)NCCNC(=O)[C@H](CCCCNC(=O)[C@H](CC(C)C)NC(=O)C2OC2C(=O)O)NC(=O)CN2CCN(CC(=O)[O-])CCN(CC(=O)[O-])CCN(CC(=O)[O-])CC2)cc1C(C)C.[177Lu+3] (mixture of isomers)			mouse, HT-29 xenograft, kidney	168 h post injection		tissue uptake	0.92 %ID/g
C=C(NC(=O)c1csc(-c2nc3c(cc2O)-c2nc(cs2)C(=O)NC(C(C)O)C(=O)NC(=C(C)OC)c2nc(cs2)C(=O)NC2c4nc(cs4)C(=O)NC(COC(=O)c4c5c6c(cccc6n4O)COC(=O)C(OC4CC(C)(O)C(N(C)C)C(C)O4)C2OC5)c2nc-3cs2)n1)C(N)=O (stereo not shown)			ICR mice, Streptococcus pneumoniae ATCC 49169 infected, immunocompromised, blood	intravenous, 32 mg/kg/day three times daily		AUC(0-t)	2900 ng·h/mL
CC(C)OCCOCc1ccc(OCC(O)CN(N=O)C(C)C)cc1 (stereo not shown)	Salmonella typhimurium	Ames test	TA1537	15.8 µg/plate, without metabolic activation	relative to: solvent control	revertant fold increase	1 fold
O=C(O)CCCOc1ccc([18F])cc1-c1cc(-c2ccccc2C(F)(F)F)n(-c2ccccc2)n1			mouse, bone	intravenous, dose not given, 30 min		tissue uptake	1.1 ± 0.31 %ID/g
N#C[C@@H]1CC(F)(F)CN1C(=O)CNC(=O)c1ccnc2c(NC(=O)[C@H](CCCCNC(=O)CCOCCOCCOCCOCCOCCOCCNC(=O)CN3CCN(CC(=O)[O-])CCN(CC(=O)[O-])CCN(CC(=O)[O-])CC3)NC(=O)CCCc3ccc(I)cc3)cccc12.[177Lu+3]			mouse, U-87 MG tumour xenograft, salivary gland	72 h		tissue uptake	0.49 ± 0.5 %ID/g
CCCC[C@H](NC(=O)CNC(=O)CNC(=O)[C@H](CCCCNC(=O)[C@H](CC(=O)O)NC(=O)C(C)c1ccc(CC(C)C)cc1)NC(=O)CN1CCN(CC(=O)O)CCN(CC(=O)O)CCN(CC(=O)O)CC1)C(=O)N[C@H]1CC(=O)NCCCC[C@@H](C(N)=O)NC(=O)[C@H](Cc2c[nH]c3ccccc23)NC(=O)[C@H](CCCNC(=N)N)NC(=O)[C@@H](Cc2ccccc2)NC(=O)[C@H](Cc2c[nH]cn2)NC1=O (stereo partly shown) [lutetium-177 labelled]			C57 mouse, intestines	2 h		tissue uptake	1.96 ± 0.93 %ID
O=C(NCC1OC2CCC=CCCC2O1)c1ccc([18F])nc1 (stereo not shown)			healthy female BALB/c nude mice, spleen	intravenous, 7.4 MBq per mouse, 120 min		tissue uptake	0.8 ± 0.5 %ID/g
COC1CN([C@H]2CC[C@H]([C@@]3(C)Oc4c(Cl)cc(C(=O)NCc5c(SC)cc(C)[nH]c5=O)c(C)c4O3)CC2)C1		RNA-seq, item: ANP32B mouse homolog	mouse, HT-1376 xenograft, whole blood	dose not given	relative to: vehicle	log2 fold change	0.323
CNC(=O)C1CCCN(C(=O)C2CC3CCC2N3C(=O)[C@@H]2C[C@@H](O)CN2C(=O)NCc2cccc(Cl)c2F)C1 (mixture of isomers)	Cytochrome P450 2D6 (CYP2D6, Homo sapiens, UniProt P10635)	enzyme activity, inhibitor, time-dependent inhibition		0.206 µM, preincubated with NADPH	relative to: negative control	remaining activity	96.6%
COc1cccc(OC)c1-c1cc(C(=O)NC2(C(=O)O)C3CC4CC(C3)CC2C4)nn1-c1ccc(C(=O)N(C)CCOCCN(C)C(=O)[C@H](CCCCNC(=O)[C@H](CC(C)C)NC(=O)C2OC2C(=O)O)NC(=O)CN2CCN(CC(=O)[O-])CCN(CC(=O)[O-])CCN(CC(=O)[O-])CC2)cc1C(C)C.[177Lu+3] (mixture of isomers)			mouse, HT-29 xenograft, kidney	168 h post injection		tissue uptake	2.6 %ID/g
Cc1cc(C)n(CCN(CCN)CCCCCCNC(=O)[C@@H](N)Cc2c[nH]cn2)n1.[99Tc+].[C-]#[O+].[C-]#[O+].[C-]#[O+]			BALB/c nude mice, A549 xenograft, brain	intravenous, 24 h		tissue uptake	0.03 ± 0.01 %IA/g
COc1cccc(OC)c1-c1cc(C(=O)NC2(C(=O)O)C3CC4CC(C3)CC2C4)nn1-c1ccc(C(=O)N(C)CCCN(C)CCCN(C)C(=O)[C@H](CCCCNC(=O)[C@H](CC(C)C)NC(=O)C2OC2C(=O)O)NC(=O)CN2CCN(CC(=O)[O-])CCN(CC(=O)[O-])CCN(CC(=O)[O-])CC2)cc1C(C)C.[177Lu+3] (mixture of isomers)			mouse, HT-29 xenograft, heart	72 h post injection		tissue uptake	0.18 %ID/g
N#C[C@@H]1CC(F)(F)CN1C(=O)CNC(=O)c1ccnc2c(NC(=O)[C@@H](N)CCCCNC(=O)CCOCCOCCOCCOCCOCCOCCNC(=O)CN3CCN(CC(=O)[O-])CCN(CC(=O)[O-])CCN(CC(=O)[O-])CC3)cccc12.[177Lu+3]			mouse, U-87 MG tumour xenograft, brain	4 h		tissue uptake	0.03 ± 0.02 %ID/g
